# Assay results collected from several papers.
medium,concentration,pH,temperature,setting,quantity,value,SMILES
PBS,10 µM,pH 7.4,298 K,,excitation maximum,497 nm,CC1=CC(C)=[N+]2C1=C(c1ccc(C[P+](c3ccccc3)(C3CCCCC3)C3CCCCC3)cc1)c1c(C)cc(C)n1[B-]2(F)F
methanol,,,,,excitation maximum,280 nm,Nc1ncnc2c1nc(-n1nnc3c1CCC1C(CO)C1CC3)n2C1OC(CO)C(O)C1O (mixture of isomers)
phosphate buffer with BSA,,pH 8,37 °C,1% DMSO,excitation maximum,276 nm,Cc1nc(C#N)ccc1N
acetonitrile/water,,,,,excitation wavelength,496 nm,CC1=CC(C)=[N+]2C1=C(CCCC(=O)NCCCCCC(=O)NCCCC[C@H](NC(=O)N[C@@H](CCC(=O)O)C(=O)O)C(=O)O)c1c(C)cc(C)n1[B-]2(F)F
PBS,10 µM,pH 7.4,298 K,,excitation maximum,497 nm,CC1=CC(C)=[N+]2C1=C(c1ccc(C[P+](c3ccccc3)(c3ccccc3)c3ccccc3)cc1)c1c(C)cc(C)n1[B-]2(F)F
aqueous buffer,,pH 7.0,,Zn2+-saturated,excitation maximum,525 nm,O=c1c(Br)c2oc3c(CN(Cc4ccccn4)Cc4cnccn4)c(O)ccc3nc-2c2ccccc12
acetonitrile/water,,,,,excitation wavelength,496 nm,CC1=CC(C)=[N+]2C1=C(CCCC(=O)O)c1c(C)cc(C)n1[B-]2(F)F
dichloromethane,10 µM,,,,excitation maximum,371 nm,COC(=O)c1cc(=O)n(C)c2c(-c3ccc(OC)cc3)csc12
alkaline phosphate buffer,,,,,excitation maximum,388 nm,O=c1[nH]c(=O)n(C2OC(CO)C(O)C2O)cc1-n1nnc2c1CCC1C(CO)C1CC2 (mixture of isomers)
acetonitrile/water,,,,,excitation wavelength,496 nm,CC1=CC(C)=[N+]2C1=C(CCCC(=O)NCCCC[C@H](NC(=O)N[C@@H](CCC(=O)O)C(=O)O)C(=O)O)c1c(C)cc(C)n1[B-]2(F)F
aqueous buffer,,pH 7.0,,Zn2+-saturated,excitation maximum,530 nm,O=c1c(Br)c2oc3c(CN(Cc4ccccn4)Cc4cnccn4)c(O)c(Cl)cc3nc-2c2ccccc12
methanol,,,,,excitation maximum,290 nm,Nc1ncnc2c1nc(-n1nnc3c1CCC1C(CO)C1CC3)n2C1CC(O)C(CO)O1 (mixture of isomers)

# Some of these lines once more:
medium,concentration,pH,temperature,setting,quantity,value,SMILES
methanol,,,,,excitation maximum,280 nm,Nc1ncnc2c1nc(-n1nnc3c1CCC1C(CO)C1CC3)n2C1OC(CO)C(O)C1O (mixture of isomers)
acetonitrile/water,,,,,excitation wavelength,496 nm,CC1=CC(C)=[N+]2C1=C(CCCC(=O)NCCCC[C@H](NC(=O)N[C@@H](CCC(=O)O)C(=O)O)C(=O)O)c1c(C)cc(C)n1[B-]2(F)F
